# Measured values collected from several papers.
# Each numbered part is a random draw from the data of one study; scales do not carry over between parts.

# Series 1
# Target: RNA binding protein fox-1 homolog 2, RRM domain, GST-SBP tag (RBFOX2, Homo sapiens, UniProt O43251-10, residues 100-194)
# Method: RNA Bind-n-Seq
# Form: RNA
# Medium: in vitro
# Tested at: 365 nM
# Notes: natural RNA segment, single round, ends assumed
# Reference: no-protein control
# Direction: higher = stronger binding
# Constant ends, left off below: GGGAGUUCUACAGUCCGACGAUC … UGGAAUUCUCGGGUGCCAA
# Construct (chain): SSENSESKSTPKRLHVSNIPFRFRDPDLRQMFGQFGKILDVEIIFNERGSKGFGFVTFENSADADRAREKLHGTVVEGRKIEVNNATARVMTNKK
Sequence,RBNS enrichment (R)
CAUAUGUCAUAUUUUAAUUAUAGAAAUCAGUAGCAAAAAGAAUCUUGGGGAUUUUCCAUCUGACUUCCCUGGCCAUCUUAUCCCAUCCUUGCACUACCAGAAGAUUCAUA,0.534
GGUUGAAGGCAGAGUUUAGUAAUUAAGUUAGAAUUAAGAGUUUUGCGAGGUUAAAAAAAUGUGCCUCGUGGAUCUCCCUGUUUUAGUAACAUGGAGAGAAAAAGUCUACA,0.551
ACUUUAUGACUUAGUUCUUCAUUUCCUGGGGCCUUAUCUUCACUGUGAACAAUAAAGUUUGAACACAGCGGGGUGUCUUUACUGCAGUGGGUGGGGGCUCAGAGGCACUA,0.488
UCACUGCCAGUUGGGGCCUAGGCUUAGUCCUGGGCAAAUGUCCAUGAUCUUGCUGCUGUAGGAAGCUUGAUAGGGCAUUUGGCUCAAAUUUCAGAAGGCCUCGCUCCUGA,0.481
ACAGGAGGCCACAAACAACCUAACAAAACCUAGGAGACCCAGCCAAGUAAAGUCCCGAGGACUGGUCGCAGUGUUCAGCCCUUCCUCCUAGGGUCAGGGAAGGUGGUCUG,0.428
CUUUAUCUUACUCUUCAGCUAAUGAAGUAGCAACAGUGUGUUACUAAUGAUUGCAAUCAUACAGUGCUUAAUAUGUGCCAGACACAGUGCCAAGGGCUUGCAUGCAUUAU,4.48
GGGGAGGGUGUUUGGGAAAGAUAAAUAGACAUAAAUAUAUAACAAUCACUUCUUGAAGAAGUAUAAUUGUAAAUAAGCCAUGUAAAAUGCCUUUUUAAAAUUUAAUUUUC,1.28
UUGAUGGCUGGGUCCUUGGGCCUGGCCAGUCUUCCUCUUAGCCUCUGGAUCUAGAAGGGACCAUAAGAGGAGUAGGCCCUGGUUCCUGCUGUCCUGGUGGCUGGGCCCAG,0.293
CUCCUGCAGACAGUGCUGCACAUCAUCCAGGUAGUCAUCAGCUACUUCCUCAUGCUCAUCUUCAUGACCUACAAUGGGUACCUAUGCAUUGCAGUAGCAGCAGGGGCUGG,0.651
GCAGAGCUGCCCUGGAGUACUGACUUGUCUCUCCCUCCUUUGUCAAGGUCCAUGUUUUUCUGGCUCUUCCUGCACACUCAUCCCUAGAUUAUGAGCGUUAAUGUACGAAA,0.408

# Series 2
# Target: Histone acetyltransferase KAT6A, winged helix 1, GST fusion (KAT6A, Homo sapiens, UniProt Q92794, residues 1-85)
# Method: protein binding microarray
# Form: double-stranded DNA, one strand shown
# Medium: in vitro
# Tested at: not given
# Notes: 8-mer, flanks averaged, mean of 2 arrays, mostly near background
# Reference: not given
# Direction: higher = stronger binding
# Residues (chain): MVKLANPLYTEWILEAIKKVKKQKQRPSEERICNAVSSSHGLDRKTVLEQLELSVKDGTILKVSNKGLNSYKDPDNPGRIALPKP
Sequence,E-score
GAAGTCCA,-0.219
AGACTCTA,-0.134
GGTGCACA,-0.00986
AACGAATG,-0.156
CACGAGCG,0.219
CAATTCGC,0.0273
GTAAGTCA,-0.102
AGCAACAT,-0.11

# Series 3
# Target: Interferon regulatory factor 3, full length, phosphomimetic (IRF3, Homo sapiens, UniProt Q14653, residues 1-427, S386D/S396D/S398D/S402D/T404D/S405D)
# Method: protein-binding microarray
# Form: double-stranded DNA, one strand shown
# Medium: in vitro
# Tested at: 2540 nM top
# Notes: 60-bp whole probe
# Together with: salmon DNA 0.4 mg/ml
# Reference: random background probes
# Direction: higher = stronger binding
# Constant ends, left off below: GCCTAGCAC … GTCTTGATTCGCTTGACGCTGCTG
# Target sequence (chain): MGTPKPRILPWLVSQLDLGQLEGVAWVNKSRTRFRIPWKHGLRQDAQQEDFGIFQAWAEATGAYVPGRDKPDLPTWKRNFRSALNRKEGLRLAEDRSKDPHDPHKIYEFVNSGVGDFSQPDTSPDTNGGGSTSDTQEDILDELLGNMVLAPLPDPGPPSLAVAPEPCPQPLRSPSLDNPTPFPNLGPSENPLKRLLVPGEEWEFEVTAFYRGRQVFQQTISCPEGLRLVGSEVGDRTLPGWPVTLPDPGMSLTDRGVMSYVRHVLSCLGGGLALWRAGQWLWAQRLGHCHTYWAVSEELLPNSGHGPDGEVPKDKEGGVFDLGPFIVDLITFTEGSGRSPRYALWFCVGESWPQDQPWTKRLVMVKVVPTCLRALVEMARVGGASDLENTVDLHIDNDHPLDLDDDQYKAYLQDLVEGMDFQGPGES
Sequence,fitted relative affinity [z-score]
GACGGACTGGGGTTGCGGGACGTGCTA,-0.292
TTAGATCTCAGTCACGATTAGTGCTAG,-0.028
TTAGGTTTCCGACTGCTTTAGTGCTAG,4.76
GTAGGACTGCTTTTCCTTTAGTGCTAG,0.836
TCACATCGTAAGCAAAAACTGTGCTAG,0.0587
TTAGGTATCGGGACTGGGTTCGTGCTA,1.24
CTCTTGATCCCGAACTGGCCGTGCTAG,0.156
GACGAACTGAATTTCGAGACGTGCTAG,0.504

# Single results of other studies
Substance,target,assay,test system,setting,how to read,measurement,value
"PhoQ, residues 284 288 289 292 302 303 SLKLQV","PhoP, residues 12 14 15 18 19 SEGLL (Escherichia coli, UniProt P23836)","Sort-seq, refers to: YFP reporter",E. coli,"PhoQ-PhoP variant library, together with: 10 µM Mg2+","reference: high Mg2+ state, higher = stronger signaling",fold induction,8.2

# For quick reference, copied from above (series 2):
Sequence,E-score
GTAAGTCA,-0.102
AGCAACAT,-0.11
